Assay results from different studies.
Each line is one published result; not all experiments were run side by side. “And” joins repeats or separate records; there may be more than shown. Numbers after ± are the reported error. Converted amounts (≈) assume the structure as drawn.

By UniProt entry, the sequences of proteins in these tests, tags left out. Residues count along the entry.
UniProt P05177, whole entry: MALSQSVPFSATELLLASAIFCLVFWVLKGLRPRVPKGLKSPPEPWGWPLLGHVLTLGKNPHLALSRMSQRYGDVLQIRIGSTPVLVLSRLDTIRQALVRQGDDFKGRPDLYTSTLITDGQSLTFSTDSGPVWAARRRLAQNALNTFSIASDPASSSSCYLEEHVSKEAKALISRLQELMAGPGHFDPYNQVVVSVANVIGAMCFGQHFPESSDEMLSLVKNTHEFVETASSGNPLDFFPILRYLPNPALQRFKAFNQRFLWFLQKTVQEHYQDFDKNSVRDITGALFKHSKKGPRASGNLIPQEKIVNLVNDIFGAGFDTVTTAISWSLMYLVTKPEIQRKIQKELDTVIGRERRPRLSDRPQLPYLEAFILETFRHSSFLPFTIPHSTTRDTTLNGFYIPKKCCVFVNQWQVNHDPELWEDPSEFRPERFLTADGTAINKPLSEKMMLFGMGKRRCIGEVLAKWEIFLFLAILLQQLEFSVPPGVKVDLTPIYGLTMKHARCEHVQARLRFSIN
UniProt P10635, whole entry: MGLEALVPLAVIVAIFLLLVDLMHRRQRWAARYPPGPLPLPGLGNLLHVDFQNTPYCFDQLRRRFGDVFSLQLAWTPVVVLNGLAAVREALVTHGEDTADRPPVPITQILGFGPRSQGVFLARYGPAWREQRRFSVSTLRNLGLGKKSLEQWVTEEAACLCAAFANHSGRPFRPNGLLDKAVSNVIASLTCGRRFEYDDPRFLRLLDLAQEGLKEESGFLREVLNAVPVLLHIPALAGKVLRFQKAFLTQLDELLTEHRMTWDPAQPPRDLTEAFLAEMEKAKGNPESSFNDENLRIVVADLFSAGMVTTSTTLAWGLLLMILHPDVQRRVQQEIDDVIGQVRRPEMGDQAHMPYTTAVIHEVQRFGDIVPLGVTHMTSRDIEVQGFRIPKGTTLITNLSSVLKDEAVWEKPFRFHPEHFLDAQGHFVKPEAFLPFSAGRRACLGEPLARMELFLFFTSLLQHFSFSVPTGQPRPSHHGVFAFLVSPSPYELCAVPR
UniProt P35353, 24-415 limits assumed: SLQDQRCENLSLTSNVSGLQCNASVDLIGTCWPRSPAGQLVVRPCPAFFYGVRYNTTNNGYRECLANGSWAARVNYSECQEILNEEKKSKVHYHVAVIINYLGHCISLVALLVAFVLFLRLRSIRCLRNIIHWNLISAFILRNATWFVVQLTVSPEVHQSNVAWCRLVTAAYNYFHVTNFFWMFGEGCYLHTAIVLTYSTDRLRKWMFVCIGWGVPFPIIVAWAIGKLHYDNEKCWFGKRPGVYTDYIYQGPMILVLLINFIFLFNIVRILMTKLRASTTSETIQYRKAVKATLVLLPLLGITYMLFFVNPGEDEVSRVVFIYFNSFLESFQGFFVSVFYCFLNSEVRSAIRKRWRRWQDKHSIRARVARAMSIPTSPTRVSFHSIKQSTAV

COc1ccc(S(=O)(=O)Nc2cccc(C(=O)NC3CCN(c4ncnc5[nH]cnc45)CC3)c2)cc1  viability (A549-ACE2; 66.67 µM): 92.5%
Cc1cccc(NC(=O)C2CC3CCC2C3)c1C (centres unmarked)  IC50 (Cytochrome P450 1A2 (CYP1A2, Homo sapiens, UniProt P05177); enzyme activity, inhibitor): 7.75 µM
Cc1ccc(OCCN(C)C)cc1C(=O)N[C@H](C)c1cc(-c2ccn(C)n2)nc2ccccc12  viability (Vero E6 cells; 250 µM): 0.6% and 1.8%
Cc1ccc2nc(-c3ccc4nc(-c5ccc(NC(=O)c6cccc(Cl)c6)cc5)sc4c3)sc2c1S(=O)(=O)O  solubility (mock assay matrix; pH 6.5): 0.0178 mg/mL (≈ 0.0301 mM)
CC(C)C[C@@H](NC(=O)[C@H](NC(=O)[C@H]1CCCN1)[C@H](C)O)C(=O)N[C@H](Cc1c[nH]cn1)C(=O)N[C@@H](C(=O)N[C@H](Cc1c[nH]cn1)C(=O)N[C@H](CC(N)=O)C(=O)N[C@H](CCCNC(=N)N)C(=O)N[C@H](CCCNC(=N)N)C(=O)N[C@H](CCCNC(=N)N)C(=O)N[C@H](CCCNC(=N)N)C(=O)N[C@H](CCCNC(=N)N)C(N)=O)[C@H](C)O  subjects with non-serious adverse events (healthy male humans; 160 320 mg daily): 6.7%
CC(C)(C)N1CCC(NC(=O)c2ccc(C(F)(F)F)cc2Cl)CC1  remaining compound (mouse plasma; 2 µM, 60 min): 90.1%
NCCNCCSc1ccccc1  solubility (shake flask; simulated intestinal fluid; 24 h, pH 6.8, 37 °C): 985 ± 40 mg/mL (≈ 5020 mM)
COc1ccc(S(=O)(=O)N2CCCN(CC(=O)Nc3ccccc3OC)CC2)cc1  IC50 (Cytochrome P450 2D6 (CYP2D6, Homo sapiens, UniProt P10635); enzyme activity, inhibitor): > 20 µM
COCn1cc(-c2cc([C@@H](C)NC(=O)c3cc(OCCN(C)C)ccc3C)c3ccccc3n2)cn1  viability (Vero E6 cells; 15.62 µM): 101% and 105%
[11CH3]Nc1ccc(C(=O)C2CCN(C3Cc4ccccc4CC3O)CC2)cc1 (single isomer, unassigned)  radioactivity uptake (Sprague-Dawley rat, pancreas; intravenous, dose not given, 5 min): 0.89 %ID/g
C1c2c(-c3nnn[nH]3)n[nH]c2[C@@H]2C[C@H]12 (relative stereo)  mechanical threshold (von Frey; wild-type mouse; subcutaneous, 10 mg/kg): no effect
O=C(N[C@@H]1CC[C@@]2(O)[C@H]3Cc4ccc(O)c5c4[C@@]2(CCN3CC2CC2)[C@H]1O5)c1ccncc1F  efflux ratio (Caco-2; 20 µM, 2 h, pH 7.4, 37 °C, without elacridar; reference: B-A over A-B): 7 ± 0.5
CN(C(=O)Cc1cccc(Cl)c1)[C@@H]1CCCC[C@H]1N1CCCC1  intrinsic clearance (mouse liver microsomes; 0.5 µM, together with: NADPH): 14 mL/min/g
CCCCCCCCCC(=O)c1cc[nH]c1  maximum non-toxic concentration (Vibrio cholerae; bacterial growth, OD600): ≤ 25 µM
O=C(NC1CCN(c2ncnc3[nH]cnc23)CC1)c1cccc(NS(=O)(=O)c2ccc([N+](=O)[O-])cc2)c1  viability (A549-ACE2; 66.67 µM): 96.3%
[2H]c1c([2H])c(S(=O)(=O)N2CCC([2H])(C(=O)Nc3ccc4cc(C(=O)O)ccc4c3)CC2)c(C([2H])([2H])[2H])c([2H])c1C([2H])([2H])[2H]  half-life (rat liver microsomes; 60 min, 37 °C): > 1 h
O=C(CC1CC2CCC1C2)Nc1nnc(-c2ccccc2Cl)s1 (centres unmarked)  CC50 (Vero): 9.2 to 18 µM
CNCCNC(=O)c1cc2c([nH]c3ccccc32)c(-c2cc(Cl)c(Cl)c(Cl)c2)n1  kinetic solubility (pH 7.4): 3.5 µM (≈ 1.57 µg/mL)
O=C(NC1CCN(c2ncnc3[nH]cnc23)CC1)c1cccc(NS(=O)(=O)c2ccc(Cl)cc2)c1  viability (A549-ACE2; 0.01016 µM): 100%
CC1(C)CC[C@]2(C(=O)O)CC[C@]3(C)C(=CC[C@@H]4[C@@]5(C)CC[C@H](OC(=O)NCc6ccccc6)C(C)(C)[C@@H]5CC[C@]43C)[C@@H]2C1  MRT(0-inf) (C57BL/6 mice, plasma; intraperitoneal, 85 µmol/kg): 9.22 h
Cc1ccc(S(=O)(=O)Nc2cccc(C(=O)NC3CCN(c4ncnc5[nH]cnc45)CC3)c2)cc1Cl  viability (A549-ACE2; 22.22 µM): 92.9%
O=C(NC1CCCCC1)Oc1ccc(O)c(-c2ccccc2)c1  remaining compound (PBS; 1 µM, 24 h, pH 7.4, 37 °C): 78 ± 2.5%
O=C(NC1CCN(c2ncnc3[nH]cnc23)CC1)c1cccc(S(=O)(=O)Nc2ccc(Cl)cc2)c1  viability (A549-ACE2; 0.03048 µM): 103%
COCCN(CCOC)c1nc(C)nc2c(-c3c(OC)cc([76Br])cc3OC)c(C)nn12  parent fraction (Corticotropin-releasing factor receptor 1 (Rattus norvegicus, UniProt P35353); TLC; rat, brain homogenate; intravenous, 1 h; reference: total radioactivity): > 70%
Cc1ccccc1S(=O)(=O)Nc1cccc(C(=O)NC2CCN(c3ncnc4[nH]cnc34)CC2)c1  viability (A549-ACE2; 0.2743 µM): 104%
CN(C(=O)Cc1ccc(Cl)c(Cl)c1)[C@@H]1CCCC[C@H]1N1CCCCCC1  intrinsic clearance (human liver microsomes; 0.5 µM, together with: NADPH): 15 mL/min/g
